{"data": "Results collected from several papers", "note": "Numbered parts are unrelated; each lists some results of a single study. Changes are numbered by the printed parent chain."}
{"data": "Set 1", "target": "UBE2U UBC core domain (UniProt Q5VVX9)", "technique": "yeast two-hybrid", "medium": "yeast", "notes": "mostly zero background", "relative to": "not given", "direction": "higher = stronger interaction", "B1": "RNF149 RING domain (UniProt Q8NC42); chain EKGIDVDAENCAVCIENFKVKDIIRILPCKHIFHRICIDPWLLDHRTCPMCKLDVIKALGYW", "B2": "RNF175 RING domain (UniProt Q8N4F7); chain LPTRSLSDNICAVCGQKIIVELDEEGLIENTYQLSCNHVFHEFCIRGWCIVGKKQTCPYCKEKVDLKRMIS", "B3": "TRIM55 RING domain (UniProt Q9BYV6); chain TMDNLEKQLICPICLEMFTKPVVILPCQHNLCRKCASDIFQASNPYLPTRGGTTMASGGRFRCPSCRHEVVLDRHG", "B4": "TRIM38 RING domain (UniProt O00635); chain STKKMMEEATCSICLSLMTNPVSINCGHSYCHLCITDFFKNPSQKQLRQETFCCPQCRAPFHMDSLRP", "B5": "UBE4A RING domain (UniProt Q14139); chain LQQQEEETYADACDEFLDPIMSTLMCDPVVLPSSRVTVDRSTIARHLLSDQTDPFNRSPLTMDQIRPNTELKEKIQRWLAERKQQKEQLE", "B6": "TRIM52 RING domain (UniProt Q96A61); chain PMQTLQEEAVCAICLDYFKDPVSISCGHNFCRGCVTQLWSKEDEEDQNEEEDEWEEEEDEEAV", "B7": "RNF112 RING domain (UniProt Q9ULX5); chain QPMAPRELPTCSICLERLRDPISLDCGHDFCIRCFSTHRLPGCEPPCCPECRKICKQKRGLR", "Residues (chain)": "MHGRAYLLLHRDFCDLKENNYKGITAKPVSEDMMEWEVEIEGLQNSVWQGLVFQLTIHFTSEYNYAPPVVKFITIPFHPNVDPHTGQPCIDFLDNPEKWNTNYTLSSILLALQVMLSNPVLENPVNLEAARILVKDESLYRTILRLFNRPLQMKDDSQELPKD"}
{"Sequence": "B1 (RNF149 RING domain)", "lacZ reporter activity": 0}
{"Sequence": "B2 (RNF175 RING domain)", "lacZ reporter activity": 0}
{"Sequence": "B3 (TRIM55 RING domain)", "lacZ reporter activity": 18000}
{"Sequence": "B4 (TRIM38 RING domain)", "lacZ reporter activity": 5940}
{"Sequence": "LKQVSIRENCCSLCCDEVADTQLKPCGHSDLCMDCALQLETCPLCRKEIVSRIRQI (RSPRY1 RING domain (UniProt Q96DX4))", "lacZ reporter activity": 0}
{"Sequence": "B5 (UBE4A RING domain)", "lacZ reporter activity": 0}
{"Sequence": "B6 (TRIM52 RING domain)", "lacZ reporter activity": 0}
{"Sequence": "B7 (RNF112 RING domain)", "lacZ reporter activity": 0}
{"data": "Set 2", "target": "Phosphate system positive regulatory protein PHO4, full length, GST-tagged (PHO4, Saccharomyces cerevisiae, UniProt P07270, residues 1-312)", "technique": "competition protein-binding microarray", "form": "double-stranded DNA, one strand shown", "medium": "in vitro", "tested at": "2 µM", "notes": "whole 60-bp probe, lowest competitor level", "added": "Cbf1 competitor, 0.05 µM", "direction": "higher = stronger binding", "Target sequence (chain)": "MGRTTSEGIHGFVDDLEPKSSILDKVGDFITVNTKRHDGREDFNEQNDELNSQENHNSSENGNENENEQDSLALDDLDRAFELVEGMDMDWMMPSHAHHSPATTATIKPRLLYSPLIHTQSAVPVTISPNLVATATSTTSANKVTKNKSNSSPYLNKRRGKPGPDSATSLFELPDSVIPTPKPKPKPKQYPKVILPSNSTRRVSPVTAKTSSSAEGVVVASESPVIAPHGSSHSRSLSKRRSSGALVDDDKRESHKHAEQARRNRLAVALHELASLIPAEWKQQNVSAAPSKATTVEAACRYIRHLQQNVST"}
{"Strand": "CTTCTGTAAATTTGTTTTGTGGGTGGACGCGCCCCGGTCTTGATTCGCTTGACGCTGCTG", "fluorescence intensity [a.u.]": 4520}
{"Strand": "GTCTTGTCTCATTGAAACGTGGGTGTCCCCACTTCAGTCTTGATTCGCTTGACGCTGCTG", "fluorescence intensity [a.u.]": 13600}
{"Strand": "AAATTACTAAGTTGATAGGTGGGTGACGCCGTATGAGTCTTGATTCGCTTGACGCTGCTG", "fluorescence intensity [a.u.]": 4240}
{"Strand": "GTTCAGTCCTCATATCATGTGATTCCCCTGGCTCTCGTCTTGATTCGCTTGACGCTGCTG", "fluorescence intensity [a.u.]": 5690}
{"Strand": "CTCAATGGAATCCGTCATGCTCGGTAAGTGAGTCTCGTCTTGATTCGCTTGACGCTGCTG", "fluorescence intensity [a.u.]": 4230}
{"Strand": "CTAACGAAGGTTTGCAAAGTGGGTGACAAGCCAAGTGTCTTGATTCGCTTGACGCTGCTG", "fluorescence intensity [a.u.]": 3520}
{"Strand": "ACCAGCACCACCAACCACCTGAACCCCAACCATATTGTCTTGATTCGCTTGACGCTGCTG", "fluorescence intensity [a.u.]": 5230}
{"Strand": "GCGGTGTCAAACGGTCTGGTGTGCCATCTAGAAGTTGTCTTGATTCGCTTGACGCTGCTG", "fluorescence intensity [a.u.]": 4240}
{"data": "Set 3", "target": "Hepatocyte nuclear factor 3-beta, forkhead domain (FOXA2, Homo sapiens, UniProt Q9Y261, residues 142-269)", "technique": "protein-binding microarray", "form": "double-stranded DNA, one strand shown", "medium": "in vitro", "tested at": "not given", "notes": "k-mer, scored over probes, only values ≥0.25", "direction": "higher = stronger binding", "Residues (chain)": "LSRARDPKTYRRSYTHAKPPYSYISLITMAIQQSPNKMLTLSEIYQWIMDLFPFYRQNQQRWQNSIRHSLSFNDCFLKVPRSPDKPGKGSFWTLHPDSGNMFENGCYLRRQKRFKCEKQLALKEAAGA"}
{"Strand": "TACACAAA", "E-score": 0.388}
{"Strand": "AACACACT", "E-score": 0.283}
{"Strand": "TAATGACA", "E-score": 0.345}
{"Strand": "TACCAGTA", "E-score": 0.273}
{"Strand": "AACAATCG", "E-score": 0.271}
{"Strand": "ACAGTGTA", "E-score": 0.277}
{"Strand": "AATAACCA", "E-score": 0.257}
{"Strand": "GGATACAA", "E-score": 0.257}
{"data": "Mixed results", "starting sequence": "viral docking peptide; KGVKRKLFAEDSS"}
{"Variant": "F8A", "target": "CCNE1, cyclin fold, Cln2 fusion (human)", "test": "yeast growth competition, sequencing", "test system": "yeast", "conditions": "strong parent motif", "scale": "relative to: not given, higher = stronger binding", "measurement": "normalised enrichment score", "result": 0.311}
{"note": "For quick reference, copied from above (set 1):"}
{"Sequence": "B6 (TRIM52 RING domain)", "lacZ reporter activity": 0}
{"Sequence": "B7 (RNF112 RING domain)", "lacZ reporter activity": 0}
